# Experimental data pooled from the literature.
# Parts stem from different laboratories: compare values within a part only.

# Sample 1
# Target: Interferon regulatory factor 7, full length, phosphomimetic (IRF7, Homo sapiens, UniProt Q92985, residues 1-503, S471D/S472D/S475D/S476D/S477D/S483D/S484D/S487D)
# Chain of UniProt Q92985 (whole entry, unmodified, looked up): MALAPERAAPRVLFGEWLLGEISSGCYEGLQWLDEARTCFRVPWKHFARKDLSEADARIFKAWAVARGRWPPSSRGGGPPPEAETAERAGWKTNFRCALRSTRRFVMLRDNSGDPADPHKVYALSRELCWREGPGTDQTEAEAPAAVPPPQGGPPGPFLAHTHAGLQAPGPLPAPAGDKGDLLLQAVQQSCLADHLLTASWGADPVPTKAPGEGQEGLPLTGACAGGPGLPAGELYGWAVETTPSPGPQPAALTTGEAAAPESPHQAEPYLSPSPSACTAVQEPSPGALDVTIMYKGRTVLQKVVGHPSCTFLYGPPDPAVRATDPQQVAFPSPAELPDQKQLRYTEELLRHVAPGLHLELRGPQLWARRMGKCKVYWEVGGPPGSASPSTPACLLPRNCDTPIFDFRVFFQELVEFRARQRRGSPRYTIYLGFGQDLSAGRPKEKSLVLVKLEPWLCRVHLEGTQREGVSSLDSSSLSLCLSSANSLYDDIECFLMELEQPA
# Method: protein-binding microarray
# Form: double-stranded DNA, one strand shown
# Medium: in vitro
# Tested at: 2200 nM top
# Notes: 60-bp whole probe
# Together with: salmon DNA 0.4 mg/ml
# Baseline: random background probes
# Reading: higher = stronger binding
# All sequences stand within: GCCTAGCAC … GTCTTGATTCGCTTGACGCTGCTG
Oligonucleotide,fitted relative affinity
TTAGGTTTCTTTTATTCAAAGTGCTAG,0.925 z-score
TCACCAATGGTCTTTCCAACTGTGCTA,0.935 z-score
GACGGACTGCTTTTCCCGACGTGCTAG,0.686 z-score
TGTTATTAAATTTTCACGGTGTGCTAG,0.513 z-score
TCATATATTTGCTTCAGACTGTGCTAG,1.23 z-score
GACGATATCGGAACTGGAGACGTGCTA,-0.0574 z-score
GGCGAACTGAGTTTCGAGACGTGCTAG,1.66 z-score
GACGTTTTCCTTCTCCTGACGTGCTAG,3.7 z-score
GACGGACTGCTTTTCCTGTCGTGCTAG,1.4 z-score
TTATGTTTCGGTCTCGGTTAGTGCTAG,6.06 z-score
TCACCACTTTCTTTTGCACTGTGCTAG,3.06 z-score
TTAGGTACCCTTTTCCTTTAGTGCTAG,2.12 z-score
GACGCTATCGGGTTTCGAGACGTGCTA,1.64 z-score
GCCTTTTATTTGAAAGAAATGTGCTAG,0.247 z-score
GACGGTCTAGGTATCGGGACGTGCTAG,-0.38 z-score
CCTTGCATGTTTTTGACAAAGTGCTAG,0.778 z-score
GACGATATGGGGACTGGAGACGTGCTA,-0.0822 z-score

# Sample 2
# Target: Centromere-binding protein 1, full length, His-tagged (CBF1, Saccharomyces cerevisiae, UniProt P17106, residues 1-351)
# Chain of UniProt P17106 (whole entry, looked up): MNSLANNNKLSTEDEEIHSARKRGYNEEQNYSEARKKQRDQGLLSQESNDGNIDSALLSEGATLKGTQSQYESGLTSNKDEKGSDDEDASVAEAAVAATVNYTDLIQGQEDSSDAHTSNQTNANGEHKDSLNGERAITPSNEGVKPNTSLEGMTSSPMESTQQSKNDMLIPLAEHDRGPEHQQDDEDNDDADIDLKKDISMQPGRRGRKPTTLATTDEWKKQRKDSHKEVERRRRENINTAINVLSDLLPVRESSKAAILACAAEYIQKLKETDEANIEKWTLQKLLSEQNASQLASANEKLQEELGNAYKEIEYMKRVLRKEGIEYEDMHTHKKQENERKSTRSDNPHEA
# Method: competition protein-binding microarray
# Form: double-stranded DNA, one strand shown
# Medium: in vitro
# Tested at: 2 µM
# Notes: whole 60-bp probe, lowest competitor level
# Together with: Pho4 competitor, 0.05 µM
# Reading: higher = stronger binding
# All sequences stand within: … GTCTTGATTCGCTTGACGCTGCTG
Oligonucleotide,fluorescence intensity [a.u.]
TATGTTTGCTACTGTCACACTGCCTTTCAATACGCT,77.2
TTTACAATTCCAAACCATGTGATGCTTGTCAGAGGG,909
ATGGCTATACCGAGTCACGTTTAGGTAATTTGTTTG,780
CTAACGAAGGTTTGTCTCGTGGGTGACAAGCCAAGT,95.6
AACCTAAAACGACTTTGTGTGACGCCGAAGAGAAAG,80.1
AAAGCGGTAATTTGTCACTTGACTTCACATATCTAT,211
CTTCTGTAAATTTGTCACGGGACTTGACGCGCCCCG,1060
CTGGCGTACGACATGAACGTGGTGAGCTCTCTTGTG,86.5
AAATTACTAAGTTGTCACCCCACTTACCCCGTATGA,85.2
CCCTTGATTTCTGCCTGTGTGATATTAAATAATTGT,111
CCAATGTACTTAAAGCACGATATCGACGCTCCTAAG,72.9
CGCCGTCCTGTAATCCATGTGGCAAGTCCACCGTAA,56
AAATTACTAAGTTGAAGAGTGGGTGACGCCGTATGA,67.2
CTTTCCCGATCTTGGGGGGTGGGTGTAGCACATTTG,89.4
AAACAAATGGCAGTCCATGTGAAAAGCTGAGACAAA,75
CGACTTGGTAGAAAGCACGATCTTCAGTGGAGTTGA,77.5
TCACCCTCTCCGACTCACGTGGACCTTGGCGCGGCC,846

# Sample 3
# Target: RING finger protein unkempt homolog, zinc fingers 1-6, GST-SBP tag (UNK, Homo sapiens, UniProt Q9C0B0, residues 30-357)
# Method: RNA Bind-n-Seq
# Form: RNA
# Medium: in vitro
# Tested at: not given
# Notes: RNA with constant flanks, human and mouse sites, ends assumed
# Baseline: input RNA pool
# Reading: higher = stronger binding
# All sequences stand within: GGGAGUUCUACAGUCCGACGAUC … CAACAGAGGAUUGAGCAUCA
# Construct (chain): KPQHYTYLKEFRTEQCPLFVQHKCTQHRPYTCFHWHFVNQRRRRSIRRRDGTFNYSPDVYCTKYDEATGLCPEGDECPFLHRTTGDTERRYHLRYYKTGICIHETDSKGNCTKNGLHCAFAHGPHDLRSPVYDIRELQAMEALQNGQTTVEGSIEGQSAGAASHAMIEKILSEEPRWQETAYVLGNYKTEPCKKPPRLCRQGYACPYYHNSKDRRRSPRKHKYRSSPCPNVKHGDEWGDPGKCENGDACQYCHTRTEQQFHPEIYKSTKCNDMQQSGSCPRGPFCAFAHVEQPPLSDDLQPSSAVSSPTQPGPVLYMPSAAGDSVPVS
Oligonucleotide,bound/input enrichment [ratio]
UUGGGACCUACUUUAUUACCCAGUAUCUUUGGGUCUGUGAAUUGAAGCAUGGUUAUCCUUCACUUUAUGGCGAAUGUCUACUUAUAAAUGAGUAUAUAUCAUCUGUCUUGCUGGCUCCGG,0.252
UUCUUUAUGUUUGUAGUCUUGAUGUGCUCCUGUGGUAUUACUUCCCCUCUGAUAGGACAUUGUAGCCAGCCUCAGCACUCAGUGAGUUCAUCAGGGCCACACCCAGUAGAGAAGGCCAAG,0.89
UUAUUAUCUGUGCAGCUCACAGUUUUUUUUUUGUAUACAACUCACAGUUCUCAAAUUUUCGUUACCCAUGGGCUUCUGUUGUCCCAUGUUCUCUCCAGUUAAGAUCUAAUUUAAAAUUCA,1.28
GUGGCUAUAGAGUCCACACCAAUGAUACUGGAAUCUAGUAUCAUGUCAUCACAUGUUAUGAAAGGAAUUAAUCUAUCCUCUGGUGAUCAAAAUCUUGCUCCAGAGAUUGGCAUGCAGGAG,0.155
GUCUCAGCUGCCUUAGACUAAAGGACUUUCAACACACUGGUCUCUUUUAAUUUAGUGAAAAGUGUGGGAGUUGUAAUUAGGAUCAUCCACCCCAGACAUGGAAUCCCCCCUCCCUGGUGG,1.54
GUCAUCAGCUCAAUGAGCUCCCUUUCUGAGUACUGCCUGCCUUCCAUUCUACGUACAUUAUUUGACUGGUAUAAAAGGCAAAAUGGCAUUGAGGAUGAAUCACAUGAAUACAGACCAAGA,0.171
AGCAAUUGCUUUGCAUUUACAGAGAGUUCUCAUGGCUCAGAAGAAUUUCAGAUACAUGUUUUCUCCUGUGAAAUUAAAGAGGCAGUAAGCAGAAUUUUAUAUAGUUUCUGCACUGCAUUC,0.0898
ACUAUUGGAUUUAAUGUGGAGACGGUGACAUACAAAAAUCUCAAAUUCCAAGUUUGGGACUUAGGAGGACAGACAAGUAUCAGGCCAUACUGGAGAUGUUAUUAUUCAAACACAGAUGCA,0.574

# Mixed results
Sequence,target,test,test system,setting,how to read,quantity,value
GAPLKKLFTSTGL,human cyclin A2,"peptide binding, competitive growth sequencing","peptide, Saccharomyces cerevisiae, cyclin A2-Cln2 fusion strain",mutational scanning library 1,direction not given,enrichment score,-0.672

# Excerpt of the above (sample 1):
Oligonucleotide,fitted relative affinity
GACGGACTGCTTTTCCCGACGTGCTAG,0.686 z-score
TCATATATTTGCTTCAGACTGTGCTAG,1.23 z-score
CCTTGCATGTTTTTGACAAAGTGCTAG,0.778 z-score
TCACCAATGGTCTTTCCAACTGTGCTA,0.935 z-score
